Assay results from different studies.
“And” joins repeats or separate records; there may be more than shown. ± gives the spread as reported.
MPO: Myeloperoxidase (MPO, Homo sapiens, UniProt P05164)
CDC28: Cyclin-dependent kinase 1 (CDC28, Candida albicans, UniProt P43063)
pyrD: Dihydroorotate dehydrogenase (quinone) (pyrD, Acinetobacter baumannii, UniProt B7GZW7)
MAOB: Amine oxidase [flavin-containing] B (MAOB, Homo sapiens, UniProt P27338)
AKR1B1: Aldo-keto reductase family 1 member B1 (AKR1B1, Homo sapiens, UniProt P15121)
T1: riboswitch RNA yjdF aptamer domain (Bacillus subtilis); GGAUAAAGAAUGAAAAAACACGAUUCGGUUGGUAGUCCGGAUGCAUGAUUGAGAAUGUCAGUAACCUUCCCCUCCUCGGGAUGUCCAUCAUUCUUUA
T2: riboswitch RNA A38C (Bacillus); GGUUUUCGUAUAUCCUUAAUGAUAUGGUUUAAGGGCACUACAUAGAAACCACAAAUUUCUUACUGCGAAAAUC

SMILES	target	test	system	setting	scale	quantity	result
C=CC(=O)N1CCC[C@@H](n2nc(-c3ccc(Oc4ccccc4)cc3)c3c(N)ncnc32)C1	INSRR (Homo sapiens, UniProt P14616)	–	–	1 µM	–	remaining activity	70.9%
NC/C(=C\F)COc1cccc(Cn2c(=S)[nH]c(=O)c3[nH]cnc32)c1	MPO	H2O2 consumption, inhibitor, H2O2 electrode	–	0.028 µM, 0 s	–	H2O2 concentration	-34.5 µM
Oc1ccccc1-c1n[nH]cc1-c1ccnc2ccccc12	CDC28	kinase binding, MIB/MS competition	Candida albicans lysate	10 µM	baseline: DMSO, negative = stronger binding	log2 fold change	0.14
NS(=O)(=O)NCCNc1nonc1C(=NO)Nc1ccc(F)c(Br)c1	IDO1 (Homo sapiens, UniProt P14902)	nanoDSF	1% DMSO	50 µM, SHG1-labelled protein, no DTT	–	inflection temperature	65.3 ± 0.4 °C
CC(=O)NCCCC[C@H](NC(=O)CNC(=O)[C@H](CCCNC(=N)N)NC(C)=O)C(=O)Nc1ccc2c(C)cc(=O)oc2c1	human Y386F mutant enzyme	substrate, fluorogenic	–	–	–	Km	16 ± 4 µM
Cc1ccc(C(=O)Nc2ccc3ccccc3c2)o1	Otop1 (Mus musculus, UniProt Q80VM9)	acid-evoked current, whole-cell patch-clamp	HEK293T	concentration not given, pH 5.5, co-applied with acid	–	activation time constant	421 ms and 400 ms and 259 ms and 590 ms and 366 ms
Nc1ncnc2c1ncn2[C@@H]1O[C@H](COP(=O)(O)OP(=O)(O)OP(=O)(O)O)[C@@H](O)[C@H]1O	P2X purinoceptor 7 (P2rx7, Rattus norvegicus, UniProt Q64663)	ion current, agonist, two-electrode voltage clamp	Xenopus laevis oocytes	333 µM	baseline: highest concentration response	normalized current	0.95 and 0.93 and 1
CC[C@H](C)[C@H](NC(=O)[C@H](CCC(=O)O)NC(=O)[C@H](C)NC(=O)[C@@H](NC(=O)[C@H](Cc1c[nH]cn1)NC(=O)[C@H]1CCC[C@@H]1NC(=O)[C@H](CCC(=O)O)NC(=O)[C@H](C)NC(=O)[C@H]1CCC[C@@H]1NC(=O)[C@H](CC(C)C)NC(=O)[C@H](Cc1c[nH]cn1)NC(=O)[C@H](Cc1c[nH]cn1)NC(=O)[C@H]1CCC[C@@H]1NC(=O)[C@H](Cc1ccccc1)NC(=O)[C@H](Cc1ccccc1)NC(=O)[C@H](CCCNC(=N)N)NC(=O)[C@H](CCCNC(=N)N)NC(=O)[C@H](CCCNC(=N)N)NC(=O)[C@H]1CCC[C@@H]1NC(=O)[C@H](CC(=O)O)NC(=O)[C@H](CCC(N)=O)NC(=O)[C@@H](NC(=O)C[C@H](Cc1c[nH]c2ccccc12)NC(=O)[C@H](CCCCN)NC(=O)[C@@H](Cc1c[nH]c2ccccc12)NC(=O)[C@H](CC(C)C)NC(=O)[C@H](CC(=O)O)NC(=O)[C@H](Cc1c[nH]cn1)NC(=O)[C@H](CC(C)C)NC(=O)C[C@@H](N)CC(C)C)[C@@H](C)CC)[C@@H](C)O)C(N)=O	PTH1R (Homo sapiens, UniProt Q03431, T410R)	antagonist, GloSensor cAMP	HEK293 expressing PTH1R	concentration not given, together with: PTH(1-34)	–	cAMP formation	decreased
CCCCCCCCc1ccc(Nc2cc(C)nc3ncnn23)cc1	pyrD	enzyme activity, inhibitor, colorimetric HTS, item: DCIP reduction	–	3 µM	direction not given	robust Z-score	20
Cc1cccc(N2CC(C(=O)O)CC2=O)c1 (stereo not shown)	Protein transport protein Sec31A (SEC31A, Homo sapiens, UniProt O94979)	binding, affinity selection mass spectrometry	–	–	baseline: other proteins in batch	log fold enrichment	-0.0223
O=c1nc(SCc2cc(F)cc(C(F)(F)F)c2)nc(SCc2ccc3nc(Cl)ccc3c2)[nH]1	TOP2A (Homo sapiens, UniProt P11388)	decatenation	–	31.25 µM	–	mean decatenated DNA	0.1%
O=C(Nc1ccccc1)c1ccc2c(c1)C(=O)NC2=O	MAOB	–	–	–	baseline: IC50 MAO-A over IC50 MAO-B	selectivity ratio	> 12
O=C1CC[C@@H](C(=O)Nc2ccc3ccccc3c2)N1	rat aminopeptidase III	substrate	–	concentration not given, pH 7.0	–	hydrolysis	inactive
CC(C)OCCn1c(=S)[nH]c(=O)c2[nH]ccc21	MPO	inhibitor, cholesteryl ester hydroperoxide	–	0.0412 µM	baseline: control	LDL lipid peroxidation	79.6% and 68.9% and 164% and 108%
N#Cc1ccn2c(-c3ccncc3)c(-c3ccc(F)cc3)nc2c1	CDC28	kinase binding, competitor, MIB/MS competition, item: CDC28	Candida albicans cell lysate	10 µM	baseline: DMSO	log2 fold change	-0.167
Nc1ncnc2c1ncn2[C@@H]1O[C@H](COP(=O)(O)CP(=O)(O)OP(=O)(O)O)[C@@H](O)[C@H]1O	P2X purinoceptor 1 (P2RX1, Homo sapiens, UniProt P51575, K136A)	calcium influx	–	100 nM	baseline: ionomycin response	calcium influx	36.8% and 38.5% and 52.3%
CN1C(=O)/C(=C/c2cc(F)c(O)c(F)c2)N=C1/C=N/O	T1, riboswitch RNA yjdF aptamer domain (Bacillus subtilis)	fluorescence titration	–	–	–	Kd	4.5 µM
Cc1cc(Nc2ccc(C(C)C)cc2)n2ncnc2n1	pyrD	enzyme activity, inhibitor, colorimetric HTS, item: DCIP reduction	–	3 µM	direction not given	robust Z-score	15
C=CC(=O)N1CCC(COCC(=O)N2CCN(c3nc(-c4cnc(N)nc4C(F)F)nc(N4CCOC[C@@H]4C)n3)CC2)CC1	ACVR1 (Homo sapiens, UniProt Q04771)	KINOMEscan	–	1 µM	–	remaining binding	99%

SMILES	target	test	system	setting	scale	quantity	result
CC1(C)CC[C@]2(C(=O)O)CC[C@]3(C)C(=CC[C@@H]4[C@@]5(C)C[C@@H](O)[C@H](OC(=O)/C=C/c6ccc(O)cc6)C(C)(C)[C@@H]5CC[C@]43C)[C@@H]2C1 (relative stereo)	Presenilin-1, N-terminal fragment (PSEN1, Homo sapiens, UniProt P49768)	S3′ subsite probe binding, competitor, item: PS1 labelling	HeLa membranes	–	–	photoaffinity labelling	no effect
CNc1ncc2c(/C=C/C(=O)N3CCC(OC)CC3)nn(Cc3cccc(C(F)(F)F)c3)c2n1	Insulin receptor (INSR, Homo sapiens, UniProt P06213)	kinase activity, inhibitor	–	1 µM	baseline: untreated control	remaining activity	97%
Cl.Cl.NNCCc1ccc(NC(=O)CCCc2ccccc2)cc1	MAOB	peroxidase-coupled	–	together with: tyramine	–	kinact	0.26 ± 0.14 min⁻¹
CC(=O)NCC(=O)NCC(=O)N[C@H](C(=O)N[C@@H](Cc1ccc(O)cc1)C(=O)N[C@@H](CO)C(=O)N[C@H]1CSSC[C@@H](C(=O)N[C@@H](CCCNC(=N)N)C(=O)N2CCC[C@H]2C(=O)N[C@@H](CCC(N)=O)C(=O)N[C@@H](CCCNC(=N)N)C(=O)NCC(=O)NCCC(=O)N[C@@H](CCCCNC(=O)CN(CC(=O)NCCCC[C@H](NC(=O)CCNC(=O)CNC(=O)[C@H](CCCNC(=N)N)NC(=O)[C@H](CCC(N)=O)NC(=O)[C@@H]2CCCN2C(=O)[C@H](CCCNC(=N)N)NC(=O)[C@@H]2CSSC[C@H](NC(=O)[C@H](CO)NC(=O)[C@H](Cc3ccc(O)cc3)NC(=O)[C@@H](NC(=O)CNC(=O)CNC(C)=O)[C@@H](C)O)C(=O)N[C@@H](Cc3c[nH]cn3)C(=O)N[C@@H](Cc3ccccc3)C(=O)NCC(=O)N[C@@H](C)C(=O)N[C@@H](CC(C)C)C(=O)N[C@@H]([C@@H](C)O)C(=O)N[C@@H](Cc3c[nH]c4ccccc34)C(=O)N[C@@H](C(C)C)C(=O)N2)C(N)=O)C(=O)CCN)C(N)=O)NC(=O)[C@H](C(C)C)NC(=O)[C@H](Cc2c[nH]c3ccccc23)NC(=O)[C@H]([C@@H](C)O)NC(=O)[C@H](CC(C)C)NC(=O)[C@H](C)NC(=O)CNC(=O)[C@H](Cc2ccccc2)NC(=O)[C@H](Cc2c[nH]cn2)NC1=O)[C@@H](C)O	Erythropoietin receptor, extracellular domain (Homo sapiens, UniProt P19235)	binding, SPR	–	–	–	residence time	31 min
[O-][S+]1CCCCS1 (stereo not shown)	SOD1 (Homo sapiens, UniProt P00441, G94A)	intact protein LC-MS	SOD1 G93A transgenic mice, whole blood	intravenous, 10 mg/kg, 72 h	–	target engagement	15.8% and 16%
S=c1[nH]nc(-c2cc(-c3ccccc3)nc3ccccc23)o1	P2X purinoceptor 4 (P2RX4, Homo sapiens, UniProt Q99571)	calcium mobilization	MCF7 stably transfected	100 µM, together with: ATP 100 µM	–	fluorescence increase	80.2 ± 1.77%
COc1cc(F)cc2c(N3CCN4c5ccccc5NC(=O)C4C3)c(C#N)nnc12 (stereo not shown)	Grm7 (Rattus norvegicus, UniProt P35400)	negative allosteric modulator	rat	–	baseline: L-AP4 max	efficacy	16%
Cc1cc(Nc2ccc(S(F)(F)(F)(F)F)cc2)n2nc(C(F)(F)F)nc2n1	pyrD	enzyme activity, inhibitor, colorimetric HTS, item: DCIP reduction	–	3 µM	direction not given	robust Z-score	24.6
COc1cc(-c2cncc3c2CN(C)Cc2cc(N4CCNCC4)ccc2-3)cc(OC)c1OC	BRSK1 (Homo sapiens, UniProt Q8TDC3)	kinase activity	–	1 µM, human enzyme, together with: ATP 10 µM	baseline: DMSO control	remaining activity	104%
CCOCc1nc(O)c(-c2nnc(Cc3ccc(Cl)cn3)o2)c(O)c1-c1c(OC)cccc1OC	Apelin receptor (APLNR, Homo sapiens, UniProt P35414)	β-arrestin2 activation, agonist, BRET biosensor	HEK293	–	–	Emax	96 ± 2%
CCNC(=O)/C=C/c1cccc(Br)c1	SLC6A19 (Homo sapiens, UniProt Q695T7)	inhibitor, radiolabelled uptake	CHO-BC cells	100 µM, with Na+, together with: L-[14C]leucine, GPNA 3 mM, JPH203 3 µM	–	L-leucine uptake	7.64 nmol/6 min/mg protein and 8.34 nmol/6 min/mg protein and 8.12 nmol/6 min/mg protein
CCc1cc(NC(=O)COc2ccc(C(F)(F)F)cc2C(F)(F)F)n(CC(F)(F)F)n1	Kir3.1/Kir3.4 (Homo sapiens, UniProt P48544+P48549)	thallium flux, activator	HEK293	–	baseline: standard compound	Emax	84%
O=C(CN1C(=O)S/C(=C\c2cccc([N+](=O)[O-])c2)C1=O)c1ccc([N+](=O)[O-])cc1	AKR1B1	enzyme activity, inhibitor	–	–	–	log IC50	2.71 log nM
CC1=NN(c2ccccn2)C(=O)C1=NNc1ccc(S(N)(=O)=O)cc1	bovine α-glucosidase	enzyme activity, inhibitor, glucose oxidase	–	200 µg/mL, together with: maltose	–	inhibition	43.2%
O=C1S/C(=C\c2ccc(Br)cc2)C(=O)N1Cc1nc2ccccc2s1	AKR1B1	enzyme activity, inhibitor	–	–	–	log IC50	2.33 log nM
COc1cc(Nc2ncc3c(n2)-c2ccc(Cl)cc2C(c2c(F)cccc2OC)=NC3)ccc1C(=O)O	FGR	kinase activity	–	1 µM	–	remaining activity	3%
[H]/N=C(/N)NCC(=O)O	SLC6A6 (Homo sapiens, UniProt P31641, Y138A)	binding, microscale thermophoresis	–	62.5 µM, room temperature, together with: 50 nM labelled protein	higher = more binding	normalised MST signal	-0.0158
Nc1nc2[nH]cnc2c(=O)[nH]1	T2, riboswitch RNA A38C (Bacillus)	ITC	–	KCl 50 mM	–	Kd	1.9 µM
